# Values quoted from earlier work as cited in several papers.
# Compare with care: the assays were run in different laboratories. ± gives the spread as reported.
SMILES,target or system,test,system,conditions,scale,quantity,value
COC1=CC(c2ccc[nH]2)=NC1=Cc1[nH]c(Cc2ccc(Cl)cc2)cc1Cc1ccc(Cl)cc1,Plasmodium yoelii,,"multidrug-resistant, mouse",25 mg/kg/day,,parasite reduction,100%
CN(C(=O)Nc1ccc(N2CCOCC2)cc1)c1nc(Cl)c(S(=O)(=O)N(C)C)s1,herpes simplex virus 1,viral replication,,,,EC50,500 nM
CCN(CC)c1ccc2nc3c4ccccc4/c(=N/c4ccncc4)cc-3oc2c1,Trypanosoma brucei rhodesiense,,,,reference: T. brucei rhodesiense over Plasmodium falciparum K1,IC50 ratio,≥ 1000 fold
O=C(Nc1ccccc1-c1cccc(Cl)c1)c1nccnc1C(F)(F)F,Puccinia triticina,,wheat,,,EC80,0.5 to 2 mg a.i./L
CSCC[C@H](NC(=O)[C@H](CCCNC(=N)N)NC(=O)[C@H](Cc1c[nH]c2ccccc12)NC(=O)[C@H](CCC(N)=O)NC(=O)[C@H](Cc1c[nH]c2ccccc12)NC(=O)[C@H](CCCNC(=N)N)NC(=O)[C@@H](N)CCCNC(=N)N)C(=O)N[C@@H](CCCCN)C(=O)N[C@@H](CCCCN)C(=O)N[C@@H](CC(C)C)C(=O)NCC(=O)NCCCC[C@H](NC(=O)CNC(=O)[C@H](CC(C)C)NC(=O)[C@H](CCCCN)NC(=O)[C@H](CCCCN)NC(=O)[C@H](CCSC)NC(=O)[C@H](CCCNC(=N)N)NC(=O)[C@H](Cc1c[nH]c2ccccc12)NC(=O)[C@H](CCC(N)=O)NC(=O)[C@H](Cc1c[nH]c2ccccc12)NC(=O)[C@H](CCCNC(=N)N)NC(=O)[C@@H](N)CCCNC(=N)N)C(=O)NCCCCCC(=O)N[C@@H](CSSC[C@H](NC(=O)CCCCCNC(=O)[C@H](CCCCNC(=O)CNC(=O)[C@H](CC(C)C)NC(=O)[C@H](CCCCN)NC(=O)[C@H](CCCCN)NC(=O)[C@H](CCSC)NC(=O)[C@H](CCCNC(=N)N)NC(=O)[C@H](Cc1c[nH]c2ccccc12)NC(=O)[C@H](CCC(N)=O)NC(=O)[C@H](Cc1c[nH]c2ccccc12)NC(=O)[C@H](CCCNC(=N)N)NC(=O)[C@@H](N)CCCNC(=N)N)NC(=O)CNC(=O)[C@H](CC(C)C)NC(=O)[C@H](CCCCN)NC(=O)[C@H](CCCCN)NC(=O)[C@H](CCSC)NC(=O)[C@H](CCCNC(=N)N)NC(=O)[C@H](Cc1c[nH]c2ccccc12)NC(=O)[C@H](CCC(N)=O)NC(=O)[C@H](Cc1c[nH]c2ccccc12)NC(=O)[C@H](CCCNC(=N)N)NC(=O)[C@@H](N)CCCNC(=N)N)C(N)=O)C(N)=O,Escherichia coli,,ATCC 25922,,,MBC,15 µM
Cc1nc(N(C)C(=O)Cc2ccc(-c3ccccc3)cc2)sc1S(=O)(=O)NCC(F)(F)F,herpes simplex virus 2,viral replication,,,,EC50,150 nM
O=C(Nc1ccccc1-c1cc(F)cc(F)c1)c1nccnc1C(F)(F)F,Botrytis cinerea,,cucumber,,,EC80,5 to 20 mg a.i./L
O=c1c(O)ccccc1O,Cryptococcus neoformans,,,,,MIC80,24 µM
O=c1ccc2cccc(OCc3cn(-c4ccsc4)nn3)c2[nH]1,Bacillus cereus,,,concentration not given,,inhibition zone,7 mm
COc1ccc(NC2=C(O)C(=O)c3ccccc3C2=O)cc1,Plasmodium berghei,,infected mice,"dose not given, day 7",reference: untreated,parasitemia inhibition,25.9%
Cc1ncccc1C(=O)Nc1cccc2c1C(C)CC2(C)C (centres unmarked),Puccinia triticina,,wheat,,,EC80,1 to 10 mg a.i./L
CC(=O)O[C@H]1C2=C(C(=O)C(O)=C(C(C)C)C2=O)[C@@]2(C)CCCC(C)(C)[C@@H]2[C@@H]1O,MEL1,,,,,GI50,10000 to 30000 nM
O=C1CC(c2cccc(O)c2)Oc2ccc(O)cc21 (centres unmarked),Leishmania infantum,,,50 µM,,inhibition,31%
Cc1ccc2nc(C)c(C(=O)NCc3ccc(C(F)(F)F)cc3)n2c1,Mycobacterium tuberculosis,,mouse acute tuberculosis model,"oral, 300 and 500 mg/kg",,bacterial load reduction,2 log CFU
CN[C@H](CC(C)C)C(=O)N[C@H]1C(=O)N[C@@H](CC(N)=O)C(=O)N[C@H]2C(=O)N[C@H]3C(=O)N[C@H](C(=O)N[C@H](C(=O)NCCCNC(=N)N)c4cc(O)cc(O)c4-c4cc3ccc4O)[C@H](O)c3ccc(c(Cl)c3)Oc3cc2cc(c3O[C@@H]2O[C@H](CO)[C@@H](O)[C@H](O)[C@H]2O[C@H]2C[C@](C)(NCc3ccc(-c4ccc(Cl)cc4)cc3)[C@H](O)[C@H](C)O2)Oc2ccc(cc2Cl)[C@H]1O,Enterococcus,,VanA vancomycin-resistant,concentration not given,reference: CBP-vancomycin,activity improvement,≤ 8 fold
NS(=O)(=O)c1ccc(CCN/C=C2\C(=O)Oc3ccccc3C2=O)cc1,Escherichia coli,,,concentration not given,,inhibition zone diameter,10 mm
CNS(=O)(=O)c1sc(N(C)C(=O)Cc2ccc(-c3ccccc3)cc2)nc1C,herpes simplex virus 2,viral replication,,,,EC50,50 nM
C[C@@](CCn1ccc(-c2ccccc2)cc1=O)(C(=O)NO)S(C)(=O)=O,Klebsiella pneumoniae,,,98 clinical isolates,,MIC90,16 µg/mL
O=C(CCCCCCCCCN=C=S)CC(=O)N[C@H]1CCOC1=O,Pseudomonas aeruginosa,,PAO1,concentration not given,,inhibition of pyocyanin production,~50%
O=C(Nc1ccccc1)c1csc2c(C3CC3)c(Cc3cccc4ccccc34)cc(=O)n12,Chlamydia trachomatis,,serovar L2,2.5 µM,,progeny infectivity,decreased
COCCOCCOCCOCCC(=O)NCc1cc(CNC(=O)CCOCCOCCOCCOC)cc(-c2cc3cc4nc(c(OC)c5[nH]c(cc6nc(cc2[nH]3)CC6(C)C)cc5-c2cc(CNC(=O)CCOCCOCCOCCOC)cc(CNC(=O)CCOCCOCCOCCOC)c2)CC4(C)C)c1,,,PBS,room temperature,,integrated Qy/B absorption ratio,0.49
O=C(Nc1ccccc1-c1ccc(F)cc1)c1nccnc1C(F)(F)F,Blumeria graminis,,barley,,,EC80,2 to 10 mg a.i./L
CCCCCCCCCCCCCCCCOCCOP1(=O)COC(Cn2cnc(N)nc2=O)CO1 (centres unmarked),herpes simplex virus,,,,reference: cytotoxicity over antiviral activity,selectivity index,1160
C/C=C/CNC(=N)NCCCCCCCCN1CCCCCCCCNC(=N)NC1=O,Candida tropicalis,,,,,MIC50,1.25 µg/mL
CN1C[C@H](c2cccc(C(F)(F)F)c2)[C@@H](C(=O)Nc2ccccc2F)C1=O,Aspergillus,antifungal activity,,concentration not given,,activity,inactive
N=C(N)NCCC[C@H](NC(=O)[C@H](Cc1c[nH]c2ccccc12)NC(=O)[C@H](CCC(N)=O)NC(=O)[C@H](Cc1c[nH]c2ccccc12)NC(=O)[C@H](CCCNC(=N)N)NC(=O)[C@@H](N)CCCNC(=N)N)C(=O)NCCCC[C@H](NC(=O)[C@H](CCCNC(=N)N)NC(=O)[C@H](Cc1c[nH]c2ccccc12)NC(=O)[C@H](CCC(N)=O)NC(=O)[C@H](Cc1c[nH]c2ccccc12)NC(=O)[C@H](CCCNC(=N)N)NC(=O)[C@@H](N)CCCNC(=N)N)C(=O)NCCCCCC(=O)N[C@@H](CSSC[C@H](NC(=O)CCCCCNC(=O)[C@H](CCCCNC(=O)[C@H](CCCNC(=N)N)NC(=O)[C@H](Cc1c[nH]c2ccccc12)NC(=O)[C@H](CCC(N)=O)NC(=O)[C@H](Cc1c[nH]c2ccccc12)NC(=O)[C@H](CCCNC(=N)N)NC(=O)[C@@H](N)CCCNC(=N)N)NC(=O)[C@H](CCCNC(=N)N)NC(=O)[C@H](Cc1c[nH]c2ccccc12)NC(=O)[C@H](CCC(N)=O)NC(=O)[C@H](Cc1c[nH]c2ccccc12)NC(=O)[C@H](CCCNC(=N)N)NC(=O)[C@@H](N)CCCNC(=N)N)C(N)=O)C(N)=O,Escherichia coli,,ATCC 25922,,,MBC,22 µM
NC(=O)c1c(F)ccc(OCc2nc3cc(Cl)cnc3s2)c1F,Staphylococcus aureus,,"Smith, mouse, infection","intraperitoneal, single dose",,ED50,< 3 mg/kg
CC1CC(C)(C)c2cccc(NC(=O)c3cccnc3Cl)c21 (centres unmarked),Botrytis cinerea,,cucumber,,,EC80,10 to 40 mg a.i./L
Cc1ccc(/N=N/c2c(C)c(C(=O)Nc3ccccc3)c(N)n(-c3ccccc3)c2=O)cc1,Aspergillus fumigatus,,,,,MIC,1.95 µg/mL
O=C(Nc1ccccc1-c1ccc(Cl)c(Cl)c1)c1nccnc1C(F)(F)F,Botrytis cinerea,,cucumber,,,EC80,2 to 10 mg a.i./L
NCCn1c2ccc([N+](=O)[O-])cc2c(=O)n1Cc1ccccc1,Trypanosoma cruzi,,,"concentration not given, epimastigotes",,antiparasitic activity,active
CC1CC(C)(C)c2cccc(NC(=O)c3nccnc3C(F)(F)F)c21 (centres unmarked),Botrytis cinerea,,cucumber,,,EC80,10 to 40 mg a.i./L
CSCC[C@H](NC(=O)[C@H](CCCNC(=N)N)NC(=O)[C@H](Cc1c[nH]c2ccccc12)NC(=O)[C@H](CCC(N)=O)NC(=O)[C@H](Cc1c[nH]c2ccccc12)NC(=O)[C@H](CCCNC(=N)N)NC(=O)[C@H](CCCNC(=N)N)NC(=O)[C@H](C)NC(=O)[C@H](CCCCN)NC(=O)[C@@H](N)Cc1ccccc1)C(=O)N[C@@H](CCCCN)C(=O)N[C@@H](CCCCN)C(=O)N[C@@H](CC(C)C)C(=O)NCC(=O)N[C@@H](C)C(=O)NCCCC[C@H](NC(=O)[C@H](C)NC(=O)CNC(=O)[C@H](CC(C)C)NC(=O)[C@H](CCCCN)NC(=O)[C@H](CCCCN)NC(=O)[C@H](CCSC)NC(=O)[C@H](CCCNC(=N)N)NC(=O)[C@H](Cc1c[nH]c2ccccc12)NC(=O)[C@H](CCC(N)=O)NC(=O)[C@H](Cc1c[nH]c2ccccc12)NC(=O)[C@H](CCCNC(=N)N)NC(=O)[C@H](CCCNC(=N)N)NC(=O)[C@H](C)NC(=O)[C@H](CCCCN)NC(=O)[C@@H](N)Cc1ccccc1)C(=O)NCCCCCC(N)=O,Escherichia coli,,ATCC 25922,,,MBC,24 µM
C[C@@H](Nc1c(-c2c(F)cc(C#CCCN(C)C)cc2F)c(Cl)nc2ncnn12)C(C)(C)C,HEK293,,,"10 µM, 4 h, unit not given",reference: vehicle (DMSO),acetylated α-tubulin level,6.94 ± 0.22
Cc1nc(N(C)C(=O)Cc2ccc(-c3cccnc3)cc2)sc1S(N)(=O)=O,herpes simplex virus 1,viral replication,,,,EC50,5 nM
C[C@@H](Nc1c(-c2c(F)cc(C#CCCN)cc2F)c(Cl)nc2ncnn12)C(C)(C)C,HEK293,,,"1 µM, 4 h, unit not given",reference: vehicle (DMSO),acetylated α-tubulin level,2.49 ± 0.17
Cc1nc(N(C)C(=O)Cc2ccc(-c3ccccn3)cc2)sc1S(N)(=O)=O,herpes simplex virus 1,viral replication,,,,EC50,20 nM
Cc1cccc(C)c1NC1=C(O)C(=O)c2ccccc2C1=O,Plasmodium berghei,,infected mice,"dose not given, day 5",reference: untreated,parasitemia inhibition,0%
C[C@@](CCc1ccc(-c2ccccc2)cc1)(C(=O)NO)S(C)(=O)=O,Pseudomonas aeruginosa,,,138 clinical isolates,,MIC90,4 µg/mL
CN1CCN(c2cc(-c3ccccc3CO)c(N(C)C(=O)C(C)(C)c3cc(C(F)(F)F)cc(C(F)(F)F)c3)cn2)CC1,,,"healthy volunteers, plasma","oral, 450 mg, single dose, given alone",,AUC(0-inf),8090 ng·h/mL
O=C(Nc1ccccc1-c1ccc(Cl)c(F)c1)c1nccnc1C(F)(F)F,Blumeria graminis,,barley,,,EC80,0.5 to 2 mg a.i./L
